Published values from different studies.
Compare with care: the assays were run in different laboratories. Several values in a cell are separate wells, animals, samples, runs or records. Numbers after ± are the reported error.
Kelch domain-containing protein 2: Kelch domain-containing protein 2 (UniProt Q9Y2U9)
Calm1: Calmodulin-1 (Calm1, Rattus norvegicus, UniProt P0DP29)
CFTR del508-508: Cystic fibrosis transmembrane conductance regulator (CFTR, Homo sapiens, UniProt P13569, del508-508)
YAP1 WW2 domain: Transcriptional coactivator YAP1, WW2 domain (YAP1, Homo sapiens, UniProt P46937)
KCNT1: Potassium channel subfamily T member 1 (KCNT1, Homo sapiens, UniProt Q5JUK3)
YAP1 WW1 domain: Transcriptional coactivator YAP1, WW1 domain (YAP1, Homo sapiens, UniProt P46937)
T1: T-box antiterminator RNA; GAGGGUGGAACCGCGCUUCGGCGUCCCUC
T2: DNA aptamer; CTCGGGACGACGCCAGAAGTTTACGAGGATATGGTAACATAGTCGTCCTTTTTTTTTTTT

Nc1ncnc2c1ncn2[C@@H]1O[C@H](COP(=O)(O)OP(=O)(O)OP(=O)(O)O)[C@@H](O)[C@H]1O — ΔTm (Histidine--tRNA ligase, cytoplasmic (HARS1, Homo sapiens, UniProt P12081, Y330C); thermal stability, DSF): 2.13 °C
EGEVIVFGG — fraction of protein bound (Kelch domain-containing protein 2; native mass spectrometry; peptide, 200 mM ammonium acetate; 20 µM Kelch domain-containing protein 2, pH 7; reference: total Kelch domain-containing protein 2 signal): 4.3%
GSRPQRLLWQTAVRHITEQRFIHGH — koff2 (Calm1; Ca2+ dissociation, stopped-flow quin-2 fluorescence; peptide; 2 µM, pH 7.4, 22 °C, added: Ca2+-calmodulin complex): 0.5 s⁻¹ and 0.49 s⁻¹
Cc1cc(C)c2cc(C#N)c(NCCCNC(=O)c3ccncc3)nc2c1 — Vmax (CFTR del508-508; CFTR correction, corrector, iodide influx rate; FRT expressing YFP-H148Q/I152L; up to 25 µM, 16-20 h, 37 °C, added: forskolin 20 µM, genistein 50 µM): 61 µM/s
C/C(=N/N=c1/scc(-c2ccc(Br)cc2)n1-c1c(C)cccc1C)c1ccc2c(c1)NC(=O)CO2 — inhibition (Aldo-keto reductase family 1 member A1 (Bos taurus, UniProt Q3ZCJ2); enzyme activity, inhibitor, absorbance; 1 mM): 12.4%
CC(C)C[C@H](NC(=O)[C@@H](NC(=O)[C@@H](N)[C@@H](C)O)C(C)C)C(=O)N1CCC[C@H]1C(=O)N1CCC[C@H]1C(=O)N1CCC[C@H]1C(=O)N1CCC[C@H]1C(=O)N[C@@H](Cc1ccc(O)cc1)C(=O)N[C@@H](CCCNC(=N)N)C(=O)N[C@@H](C)C(=O)N[C@@H](CCCNC(=N)N)C(=O)N[C@@H](CC(N)=O)C(=O)O — ΔH (YAP1 WW2 domain; binding, ITC; pH 7.0, 25 °C, WW2 domain): -14.6 ± 0.35 kcal/mol
IKPAKRMKFKTVCYLLVQLMHCRKMFKA — Ca2+ dissociation rate constant (Calm1; N-lobe Ca2+ dissociation, stopped-flow with quin-2; peptide; 22 °C): > 500 s⁻¹
IINFEKL — K1/2 of L-AMC (Endoplasmic reticulum aminopeptidase 1 (ERAP1, Homo sapiens, UniProt Q9NZ08, V737R); substrate; peptide; pH 8.0, 27 °C, mutant V737R, added: L-AMC, peptide activator 100 µM): 0.34 ± 0.14 mM
CCOc1ccccc1S(=O)(=O)N1CC(c2nc(-c3ccc(F)cn3)no2)C1 — activity class (KCNT1; Tl+ flux, inhibitor; HEK293 expressing KCNT1; 30 µM): inactive
Cc1cc(=O)oc2cc(NC(=O)[C@@H](N)CC(C)C)ccc12 — Vmax (Endoplasmic reticulum aminopeptidase 1 (ERAP1, Homo sapiens, UniProt Q9NZ08, L733R); hydrolysis of compound, substrate; varied from 0 µM, 5 min, pH 8.0, 27 °C, mutant L733R, no peptide activator): 50 ± 1 nmol/min/µg
CC(=O)c1ccc(NC(=O)OCC2OC(=O)NC2CN2CCN(c3ccccc3)CC2)cc1 (racemic) — Kd (T1, T-box antiterminator RNA; FRET binding titration; 100 nM, 130 min, pH 6.5, 25 °C, NaCl 50 mM, single-site fit, added: MgCl2 5 mM): 1800 nM
C[C@]12CC[C@H](O)CC1=CC[C@@H]1[C@@H]2CC[C@]2(C)C(c3cccnc3)=CC[C@@H]12 — conversion to DHEA (Steroid 17-alpha-hydroxylase/17,20 lyase (CYP17A1, Homo sapiens, UniProt P05093); enzyme activity; HEK293 expressing CYP17A1; 1 nM, 3 h, added: [3H]pregnenolone): 2.6%
O=C(O)c1cccc(O)c1O — remaining activity (Enterobactin synthase component B, with EntC (entB, Escherichia coli, UniProt P0ADI4); isochorismatase activity, EntC-EntB-LDH coupled; 350 µM, 0.05 µM EntC, 1.25 µM EntB, added: 6.25 µM MenD competitor, 26 µM chorismate; reference: without MenD): ~5%
CC(C)C[C@H](NC(=O)[C@@H](NC(=O)[C@@H](N)[C@@H](C)O)C(C)C)C(=O)N1CCC[C@H]1C(=O)N1CCC[C@H]1C(=O)N1CCC[C@H]1C(=O)N1CCC[C@H]1C(=O)N[C@@H](Cc1ccc(O)cc1)C(=O)N[C@@H](C)C(=O)N[C@@H](Cc1c[nH]cn1)C(=O)N[C@@H](CCCNC(=N)N)C(=O)N[C@@H](CC(N)=O)C(=O)O — ΔG (YAP1 WW1 domain; binding, ITC; pH 7.0, 25 °C, WW1 domain): -5.85 ± 0.14 kcal/mol
CC(=O)[C@H]1CC[C@H]2[C@@H]3CCC4=CC(=O)CC[C@]4(C)[C@H]3CC[C@]12C — binding (T2, DNA aptamer; probe displacement, competitor, microarray): binds weakly
SDEGEVIVFGG — fraction of protein bound (Kelch domain-containing protein 2; native mass spectrometry; peptide, 200 mM ammonium acetate; 20 µM Kelch domain-containing protein 2, pH 7; reference: total Kelch domain-containing protein 2 signal): 5.5%
O=S(=O)(c1cccc2cccnc12)N1CC(c2nc(-c3ccc(F)cc3)no2)C1 — efficacy (KCNT1; ion current, activator, automated patch clamp; CHO; 30 µM; reference: bepridil 60 µM): 100%
Oc1ccc(/C=C/c2ccccc2)cc1O — fluorescence increase (Transthyretin, fibrils (TTR, Homo sapiens, UniProt P02766); binding, fluorescence emission; 1 µM, pH 3.0, added: 5 µM fibrils (monomer); reference: free compound): 1.7 fold
Nc1ccc(-c2nc([C@H]3CCc4cc(-c5cc(Cl)ccc5-n5cnnn5)cc(=O)n43)c(F)[nH]2)c(F)n1 — maximum inhibition (Coagulation factor XI (F11, Homo sapiens, UniProt P03951); factor XI coagulant activity; human, blood; oral, 80 mg once daily, 14 days, fed): 75 ± 7.7%
Clc1ccccc1SSc1ccccc1Cl — inhibition (tubulin; colchicine binding, [3H]colchicine binding; 5 µM, 10 min, 37 °C, added: [3H]colchicine 5.0 µM): 15 ± 5%
CC(C)CCN[C@@H]1C[C@@H](c2ccc(Cl)c(Cl)c2)c2ccccc21 (relative stereo) — Ki' (Trypanothione reductase (TPR, Trypanosoma cruzi, UniProt P28593); enzyme activity, mixed inhibitor; added: trypanothione disulfide 0.58 to 50 µM): 16.8 ± 3.3 µM
Nc1ncnc2c1ncn2[C@@H]1O[C@H](COP(=O)(O)OP(=O)(O)OP(=O)(O)O)[C@@H](O)[C@H]1O — koff (Sodium/potassium-transporting ATPase subunit alpha-1 (ATP1A1, Canis lupus familiaris, UniProt P50997); dissociation from E1 state; dog; 4 °C, added: 45 mM Na+, NMG+ replacement, total 500 mM): 0.69 ± 0.02 s⁻¹
CC(C)C[C@H](NC(=O)[C@@H](NC(=O)[C@@H](N)[C@@H](C)O)C(C)C)C(=O)N[C@@H](C)C(=O)N1CCC[C@H]1C(=O)N1CCC[C@H]1C(=O)N1CCC[C@H]1C(=O)N[C@@H](Cc1ccc(O)cc1)C(=O)N[C@@H](CCCNC(=N)N)C(=O)N[C@@H](Cc1c[nH]cn1)C(=O)N[C@@H](CCCNC(=N)N)C(=O)N[C@@H](CC(N)=O)C(=O)O — TΔS (YAP1 WW1 domain; binding, ITC; pH 7.0, 25 °C, WW1 domain): -10.2 ± 0.83 kcal/mol
C=C[C@H](C)C[C@@H]1NC(=O)[C@H]([C@@H](O)C(C)C)N(C)C(=O)[C@H](C)N(C)C(=O)[C@@H]([C@@H](C)CC)NC(=O)[C@@H]([C@H](O)C(C)C)NC(=O)[C@H]2CCCCN2C(=O)[C@H](C)N(C)C1=O — residence time (Elongation factor 1-alpha 1, ternary complex on ribosome (EEF1A1, Homo sapiens, UniProt P68104); inhibitor, smFRET washout; 10 µM, 30 s preincubation, 25 °C): 0.85 min
O=S(=O)(Sc1cccc(Br)c1)c1cccc(Br)c1 — inhibition (tubulin; colchicine binding; 5 µM, 10 min, 37 °C, added: [3H]colchicine 5.0 µM): 20 ± 1%
CC(C)[C@H](NC(=O)[C@@H](N)[C@@H](C)O)C(=O)N[C@@H](C)C(=O)N1CCC[C@H]1C(=O)N1CCC[C@H]1C(=O)N1CCC[C@H]1C(=O)N1CCC[C@H]1C(=O)N[C@@H](Cc1ccc(O)cc1)C(=O)N[C@@H](CCCNC(=N)N)C(=O)N[C@@H](Cc1c[nH]cn1)C(=O)N[C@@H](CCCNC(=N)N)C(=O)N[C@@H](CC(N)=O)C(=O)O — ΔH (YAP1 WW2 domain; binding, ITC; pH 7.0, 25 °C, WW2 domain): -13.1 ± 0.21 kcal/mol
N[C@H]1C=C(C(=O)O)CC1(F)F — quinonoid intermediate accumulation (Ornithine aminotransferase, mitochondrial (OAT, Homo sapiens, UniProt P04181); stopped-flow spectrophotometry; concentration not given): ~20%
CCN(CCO)CCCC(C)Nc1ccnc2cc(Cl)ccc12 (centres unmarked) — log Ka (Prosaposin, Saposin B (PSAP, Homo sapiens, UniProt P07602); tyrosine fluorescence quenching; pH 5.5, 25 °C, added: saposin B 40 µM): 3.81
CC(=O)C(C)=NO — bound fibrinogen fluorescence (integrin alphaM beta2 (human); ligand binding, inhibitor, flow cytometry; human neutrophils; concentration not given, 1 h, 37 °C, integrin clustering inhibitor, added: Alexa 488-labelled fibrinogen; reference: no inhibitor, lower means less binding): 509 ± 72 MFI
IINFEKE — Hill coefficient (Endoplasmic reticulum aminopeptidase 1 (ERAP1, Homo sapiens, UniProt Q9NZ08, F803R); substrate; peptide; pH 8.0, 27 °C, mutant F803R, added: L-AMC, peptide activator 100 µM): 2.3
CC(C)C[C@H](NC(=O)[C@H](C)NC(=O)[C@@H](N)[C@@H](C)O)C(=O)N1CCC[C@H]1C(=O)N1CCC[C@H]1C(=O)N1CCC[C@H]1C(=O)N1CCC[C@H]1C(=O)N[C@@H](Cc1ccc(O)cc1)C(=O)N[C@@H](CCCNC(=N)N)C(=O)N[C@@H](Cc1c[nH]cn1)C(=O)N[C@@H](CCCNC(=N)N)C(=O)N[C@@H](CC(N)=O)C(=O)O — TΔS (YAP1 WW2 domain; binding, ITC; pH 7.0, 25 °C, WW2 domain): -4.54 ± 0.45 kcal/mol
COc1ccc([N+](=O)[O-])cc1Nc1nc2c(s1)CCCCc1nc(NC(=O)C(C)(C)C)sc1-2 — Vmax (CFTR del508-508; iodide influx, corrector, YFP halide quenching; FRT cells expressing YFP-H148Q/I152L; 16 to 20 h, 37 °C, genistein 50 µM, added: forskolin 20 µM): 243 µM/s

A few entries again:
O=C(O)c1cccc(O)c1O — remaining activity (Enterobactin synthase component B, with EntC (entB, Escherichia coli, UniProt P0ADI4); isochorismatase activity, EntC-EntB-LDH coupled; 350 µM, 0.05 µM EntC, 1.25 µM EntB, added: 6.25 µM MenD competitor, 26 µM chorismate; reference: without MenD): ~5%
N[C@H]1C=C(C(=O)O)CC1(F)F — quinonoid intermediate accumulation (Ornithine aminotransferase, mitochondrial (OAT, Homo sapiens, UniProt P04181); stopped-flow spectrophotometry; concentration not given): ~20%
